Assay results pooled from the literature.
Parts stem from different laboratories: compare values within a part only. Changes are numbered by the printed parent chain.

Sample 1
Target: ABI1, truncated, D143A, DHFR fusion (Arabidopsis thaliana)
Method: DHFR PCA, deep sequencing
Medium: yeast
Setting: methotrexate growth selection, single substitutions
Added: (+)-ABA 710 µM
Reference: wild-type fitted maximum
Reading: higher = stronger binding
Starting sequence: PYL1, truncated, DHFR fusion (Arabidopsis thaliana); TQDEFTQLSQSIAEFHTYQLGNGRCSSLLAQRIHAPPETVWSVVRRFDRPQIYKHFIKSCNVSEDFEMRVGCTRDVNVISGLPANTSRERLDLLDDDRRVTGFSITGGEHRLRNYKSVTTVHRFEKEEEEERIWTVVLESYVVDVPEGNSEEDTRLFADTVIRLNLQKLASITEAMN
| Variant | relative binding score |
| --- | --- |
| L29N | 102% |
| R45G | 75.4% |
| I133R | 109% |
| S117L | -3.87% |
| I12N | 69.2% |
| R90F | 66.6% |
| G148S | 92.9% |
| H34G | 101% |
| A35F | 29.6% |
| T17H | 102% |
| W41T | -3.98% |
| K58C | 88.8% |
| R163L | 74.1% |
| G81P | 64.5% |
| V44H | -5.94% |
| S87M | 14.5% |
| K58G | 94.1% |
| A84Y | 62% |
| G23C | 93.3% |
| R113S | 107% |
| P36H | 99.5% |
| Y18W | 100% |
| S26L | 69.3% |
| F5R | 106% |
| V43M | 96.8% |

Sample 2
Target: Sal-like protein 4, full length isoform B (SALL4, Homo sapiens, UniProt Q9UJQ4-2, residues 1-616)
Method: universal PBM
Molecule type: double-stranded DNA, one strand shown
Medium: in vitro
Concentration: not given
Setting: 8-mer, flanks averaged, mean of replicates
Reading: higher = stronger binding
Residues (chain): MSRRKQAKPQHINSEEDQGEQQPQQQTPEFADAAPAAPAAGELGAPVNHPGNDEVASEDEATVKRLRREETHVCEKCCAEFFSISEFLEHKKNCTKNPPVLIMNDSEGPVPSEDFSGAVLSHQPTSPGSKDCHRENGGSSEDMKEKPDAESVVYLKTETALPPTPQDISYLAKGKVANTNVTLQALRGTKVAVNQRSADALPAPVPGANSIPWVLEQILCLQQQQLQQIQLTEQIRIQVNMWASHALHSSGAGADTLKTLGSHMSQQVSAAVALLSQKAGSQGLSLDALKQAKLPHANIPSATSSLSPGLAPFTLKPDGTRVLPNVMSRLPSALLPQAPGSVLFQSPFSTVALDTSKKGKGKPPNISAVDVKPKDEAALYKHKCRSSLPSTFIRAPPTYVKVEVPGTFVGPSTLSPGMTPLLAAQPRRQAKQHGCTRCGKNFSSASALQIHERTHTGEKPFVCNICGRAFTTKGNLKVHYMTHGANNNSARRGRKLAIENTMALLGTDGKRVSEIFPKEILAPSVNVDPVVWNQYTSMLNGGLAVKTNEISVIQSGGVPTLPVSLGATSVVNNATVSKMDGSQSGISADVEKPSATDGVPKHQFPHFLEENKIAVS
| Sequence | E-score |
| --- | --- |
| ATGCCAGG | -0.198 |
| AAATGCTG | 0.0135 |
| GAAGGCAC | -0.137 |
| ACGCTCGA | -0.0559 |
| CCCGCAAC | -0.146 |
| AGAAATAC | 0.171 |
| CCTCCAGC | -0.154 |
| GAAAGTGC | -0.117 |
| CGACACAC | 0.13 |
| TCAACCAA | 0.0239 |
| AGTGATTG | 0.0869 |
| TCACAAAA | 0.104 |
| GATGTGGC | -0.195 |
| CAATGAAA | 0.143 |
| AATCCTCG | -0.165 |
| GAGGAGGA | -0.133 |
| AATTGGAG | 0.095 |
| CACGTGGA | 0.0694 |
| TACTGTGA | 0.0989 |
| AATGATAG | 0.201 |
| GGGTGTGA | -0.0412 |
| GCTGAGCA | -0.203 |
| AGACGACG | -0.185 |
| CGTTGCTA | 0.0368 |
| GGAACTCC | -0.248 |

Sample 3
Target: RING finger protein unkempt homolog, zinc fingers 1-6, GST-SBP tag (UNK, Homo sapiens, UniProt Q9C0B0, residues 30-357)
Method: RNA Bind-n-Seq
Molecule type: RNA
Medium: in vitro
Concentration: not given
Setting: RNA with constant flanks, ends assumed
Reference: input RNA pool
Reading: higher = stronger binding
Shared flanks, not repeated: GGGAGUUCUACAGUCCGACGAUC … CAACAGAGGAUUGAGCAUCA
Construct (chain): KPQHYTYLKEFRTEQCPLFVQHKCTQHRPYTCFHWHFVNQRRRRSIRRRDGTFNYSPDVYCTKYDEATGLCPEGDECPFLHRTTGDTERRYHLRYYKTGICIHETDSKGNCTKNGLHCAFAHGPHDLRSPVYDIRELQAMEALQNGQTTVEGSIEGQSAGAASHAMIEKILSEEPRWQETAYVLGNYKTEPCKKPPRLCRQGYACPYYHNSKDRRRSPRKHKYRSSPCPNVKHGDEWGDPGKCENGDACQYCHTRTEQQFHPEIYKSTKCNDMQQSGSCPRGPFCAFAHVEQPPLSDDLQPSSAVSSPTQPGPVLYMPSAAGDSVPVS
| Sequence | bound/input enrichment [ratio] |
| --- | --- |
| AAUAAAGCGGUUGUGCUUCGGGGCCAUGAAUCUGAAGUUUUCAUCUGUGCCUGGAACCCUGUCCGUGAUCUCCUGGCAUCAGGGUCUGGAGACUCCACGGCAAGAAUCUGGAACCUCAGU | 0.123 |
| GAGUCGAGCAAACUUGAAACAAUUCGUUAUCUUGCAGCCUCAGUGUUCACUUGCUUGGCGACCGCAUUGGGGUUUUAUAGGUUCUGGAAGGAGAACUGACGAUGAUGCUGCCGCUGCUGC | 0.212 |
| GAAGAAGGGCUGAAGACAGCUGAUCCCCAUGACUGCUCUGCUUAUACUGGCUGGACAGGCACCGCCCUUUUGUACCUGCAGUUGUACCGGGUCACAUGUGACCAAACCUACCUGCUCCGA | 0.0696 |
| CAGGGCCAAAACUGGAACCAAGGAUUUAAUAACUAUUAUGAUCAAGGAUAUGGAAAUUACAACCGUGCCUAUGGUGGUGAUCAAAACUAUAGUGGCUAUGGCGGAUAUGAUUAUACUGGG | 0.43 |
| CAAGAUCACCUGUCUCCUGAAGCAGAAGAAAUCACUAUGAUUAGUAUUCAGCUUGCUGCCCGGUUCCUUUUUACUACAGGAUUUCACACAAAGAAAAUAGUCCGAGGAUCUGCCAGUGAU | 0.265 |
| UACAGAAGGAGCACCUCUCAAACCGUGCUUCAGGCUCUGAGAAAAGGAGCACAGGGGAAAUCCGUCUUGCUUUGGAUCCAAGCAAAUGCUGUCGGAGCAAUGAACUGGGACUUUGUGUGC | 0.104 |
| CAUGCAAUCUUGUAAUGUGGCCUGAAAACAAGCUAACUGUAUUAGAAACUAUUCAAAAACCCGGUAUUUUUAGUGACCUGUAGGCAGUGGCAAAUACAGACAUGUGAACCUUGAAUACAU | 0.637 |
| UUUAUACAAGGAGAAGCACUGGAUCCAAAGCAUGUCUGCAACCCAGCCAUUUUCAGGCUAACCGCUCGUCAGCUUGCUAAAAUCCAUGCUAUUCAUGCACACAAUGGCUGGAUCCCCAAA | 0.131 |
| UCUUUAUUCCUUCCUUUUCCUUUUUUUCUUUUUUUUUUCUUUUUUUUUUUUUUUUUUUGGCCGUUGUUGUUACCCACGCCAUUUUACGUCUCCUUCACUGAAGGGCUAGAGUUUUAACUU | 6.49 |
| CCUCGGGAACGGGACUACUUAAAAACAGUCUUACACAGAAUUUAUGGCAAGUUUCUUGGUCUCCGAGCAUUUAUCCGAAAACAGAUUAACAAUAUUUUUCUAAGGUUUGUUUAUGAAACA | 0.458 |
| GGCAAAGGCAAAGGCGGCUCCGGAGAUUCGGCCGUGAAGCAGGUGCAGAUCGACGGCCUGGCCGUAUUAAAGAUAAUCAAACAUUAUCAAGAAGAAGGACAAGGCACUGAGGUUGUUCAG | 0.172 |

Sample 4
Target: Histone acetyltransferase KAT6A, winged helix 2, GST fusion (KAT6A, Homo sapiens, UniProt Q92794, residues 85-181)
Method: protein binding microarray
Molecule type: double-stranded DNA, one strand shown
Medium: in vitro
Concentration: not given
Setting: 8-mer, flanks averaged, mean of 2 arrays, mostly near background
Reference: not given
Reading: higher = stronger binding
Target sequence (chain): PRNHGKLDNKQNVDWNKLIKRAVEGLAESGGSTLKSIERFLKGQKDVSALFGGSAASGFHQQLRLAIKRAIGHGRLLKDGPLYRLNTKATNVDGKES
| Sequence | E-score |
| --- | --- |
| GCGACGCA | 0.206 |
| ATCCCAGC | 0.102 |
| CACAGTAC | -0.00923 |
| CCGTTTAA | -0.0427 |
| AAAGTTGG | -0.0185 |
| AAAATCGA | 0.0771 |
| CGGAAAGA | 0.0748 |
| TACTAGAA | -0.0829 |
| GCCCGTAA | -0.0177 |
| AACCTACC | -0.0592 |
| ATCATGGG | 0.00851 |
| ACGGGACA | -0.0212 |
| ACCTATGC | -0.173 |
| AGGAGCTG | -0.0217 |
| GAGAACAC | 0.0958 |
| ATAATATC | 0.0441 |
| CTCGGGGC | 0.079 |
| AATGTACC | -0.0882 |
| AGAAACGA | 0.0621 |
| ATGGGTAG | -0.222 |
| CAAGAGTC | -0.0527 |

Sample 5
Target: CCNB1, cyclin fold, Cln2 fusion (human)
Method: yeast growth competition, sequencing
Medium: yeast
Setting: weak parent motif
Reference: not given
Reading: higher = stronger binding
Starting sequence: E2F7 docking peptide (human); SSAQRRLEIPSGG
| Variant | normalised enrichment score |
| --- | --- |
| R5K | -0.402 |
| S2A | 0.0219 |
| G13A | 0.284 |
| R5A L7A | 0.0832 |
| S11A | -0.133 |
| R5K I9L | 0.0749 |
| I9L | 0.291 |
| L7A | -0.139 |
| I9A | 0.524 |
| R5A | 0.593 |

Sample 6
Target: RNA binding protein fox-1 homolog 2, RRM domain, GST-SBP tag (RBFOX2, Homo sapiens, UniProt O43251-10, residues 100-194)
Method: RNA Bind-n-Seq
Molecule type: RNA
Medium: in vitro
Concentration: 365 nM
Setting: natural RNA segment, single round, ends assumed
Reference: no-protein control
Reading: higher = stronger binding
Shared flanks, not repeated: GGGAGUUCUACAGUCCGACGAUC … UGGAAUUCUCGGGUGCCAA
Residues (chain): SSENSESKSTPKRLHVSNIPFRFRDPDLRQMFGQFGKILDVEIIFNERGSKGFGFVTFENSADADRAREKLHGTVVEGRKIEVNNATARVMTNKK
| Sequence | RBNS enrichment (R) |
| --- | --- |
| AGGAGAUGGAGAGAAAUACAUCGAUUGAGGCAUUAGAUGGCUCCCAUUGCACUGCUCGCAGCUCCCUGCUCAGACUUCACCCCAAGCUGAAGCCUCCAGAGGGACAGCAG | 0.339 |
| GAGAAUAAAGAGCAGUCGCAAUGAAGCUGCCCACCCUCGGCACUCUGCAGCUUUAGUUACUGAUCUAGAAGCCCUGUAGUGUGAAGCGGCCGCUGCAGGCCAUUGUACAC | 0.332 |
| GUGUUAUCUUUAUAUGUCAAACUGGUUGAACACUGUAAUGAGAAUAAACUGCACAGAGUUUAUUCUGACUUAUUUCUCAUUUUGUUUGGUUCAGCCCUUGUGUGAUGAAG | 0.665 |
| UCUGAAACUUGCACUGCCCAUCCAUGCAAAAAUAAGUAUCUUAAAUAAAAGCAGAGAGCAAAAACUGGGGAGCCAUGUACUAUGUCACCACAUCUGUUAACUGUUUCCUG | 0.272 |
| AUUUUAUGGACAUUUUUUGGGCAUUUAAGCCAUCAGGCCUAUUGCAAGAGUGCCUCCUGUAGCAGUUUUAACCAAAUUUCAUUCCCCUGGUACCGUGGAGCUUUAUUUUG | 0.471 |
| CCUUUCAUAGCCUUAAUUCAUGUCAUGUAUAAAUUAACAUAAAUCAUGUCUAUUUACAUAGUGAAGGUCCAGAAUAAAUGAAAUAAUUUUGCUACCUUGGUGUUGAAACA | 0.318 |
| GCAGCACAAGGUGCACUUCAUGGUCUCACUGGACCAUUCCAUGUGGUUCCACGCCCCCUUCCGAGCUGACCACUGGAUGCUCUAUGAAUGCGAGAGCCCCUGGGCCGGUG | 1.1 |
| GAGAGGCUCUUACUAGGGCCCUCAUUUCUCCUUUUCUGUAUAAGUAUAAGGUCCAGGCUGGUCCUUACUCUUCCUGGGACCAAAAGCACCCAGAGGCAUUAACAGGUCCC | 0.243 |
| UGUCUGAAGUGCCUUGGGGGCACCCUCAUUUUGUUUCCAUUCCAACAACGAGAACAGAGAUGUUCUGGCAUCAUUUACGUAGUUUACGCUACCAAUCUGAAUUCGAGGCC | 0.27 |
| UGUCUUACAGGAGUUUGCAGAGAAACCUUCCUUGGAGGGAAAGAAAUAUCAGGGAUUUUUGUUGAAUAUUUCAAAUUCAGCUUUAAGUGUAAGACUCAGCAGUGUUCAUG | 0.441 |
| ACUGUGUGUCUCCCUCAUGGAGUGCGAGGAUUUGAGCAUUUUCUGCUUCUUUAUGCUUUUUCAUUUAAAACAUGUUUUAAAGCAUAUUCUCACUGAGUCUAUUGUUUGUC | 0.427 |
| GAGACGGAGCACACUUGUUACGAAUCCUCCCUGCACUGCAUUCGCACAAACUGCUUCCUUUCUUGAUUCGUAGAUUUAAUAACUUACCUGAAGGGGUUUUCUUGAUAAUU | 1.46 |

Some of these lines once more (sample 1):
| Variant | relative binding score |
| --- | --- |
| G148S | 92.9% |
| H34G | 101% |
| A35F | 29.6% |
| T17H | 102% |
| W41T | -3.98% |
| K58C | 88.8% |
| R163L | 74.1% |
| G81P | 64.5% |
